Measurements of several laboratories.
Lines come from different studies, so protocols differ.
rep main protease: Replicase polyprotein 1ab, main protease (rep, Severe acute respiratory syndrome coronavirus 2, UniProt P0DTD1)
Spike glycoprotein: Spike glycoprotein (Severe acute respiratory syndrome coronavirus 2, UniProt P0DTC2)

| Structure (SMILES) | target or system | assay | test system | conditions | scale | quantity | result |
| --- | --- | --- | --- | --- | --- | --- | --- |
| O=C(NC[C@H](NC(=O)c1cnoc1-c1ccccc1)c1ccc2ccccc2c1)c1cn[nH]n1 | rep main protease | enzyme activity, inhibitor | – | 5 µM, mean of runs | – | inhibition | 10.5% |
| CNC(=O)[C@@H](NC(=O)[C@H](CC(C)C)[C@H](O)C(=O)NO)C(C)(C)C | rep main protease | reporter gene (Gaussia luciferase), inhibitor | – | 20 µM | – | inhibition | -1.26% |
| CC1=C(/C=C/C(C)=C/C=C/C(C)=C/C=C/C=C(C)/C=C/C=C(C)/C=C/C2=C(C)CCCC2(C)C)C(C)(C)CCC1 | Spike glycoprotein | binding, BLI | – | – | – | kon | 342 M⁻¹ s⁻¹ |
| O=C(c1cccc(CF)c1)N1CCCCC[C@@H](Nc2nc(-c3cccnc3)nc3c2CCC3)C1 | rep main protease | enzyme activity, inhibitor | – | 5 µM, mean of runs | – | inhibition | 10.6% |
| C1=CCC2(CC1)COC(c1ccco1)OC2 (stereo not shown) | rep main protease | viral replication, Gluc reporter | SARS-CoV-2 | 20 µM | – | inhibition | 1.15% |
| CCc1c(C(=O)C(N)=O)c2c(OCC(=O)O)cccc2n1Cc1ccccc1 | Daboia russelii venom phospholipase A2 | enzyme activity, inhibitor | MP population | 0.001 µM, added: NOB substrate | relative to: venom alone | remaining activity | 100% |
| Cc1cc(Nc2ncc(Cl)c(Nc3ccccc3S(=O)(=O)C(C)C)n2)c(OC(C)C)cc1C1CCNCC1 | rep main protease | reporter gene (mKate2), inhibitor | – | 20 µM | – | inhibition | -1.26% |
| Nc1cc(OCCCNC(=O)c2ccc(S(=O)(=O)F)cc2)ccn1 | Calmodulin-sensitive adenylate cyclase (cya, Bacillus anthracis, UniProt P40136) | – | – | – | – | kinact | 0.000717 s⁻¹ |
| Cn1cnc(Cn2c(=O)[nH]/c(=N\c3cc4cn(C)nc4cc3Cl)n(Cc3cc(F)c(F)cc3F)c2=O)n1 | – | – | human, severe renal impairment | oral, 375 mg, decreased GFR TEAE, moderate severity | – | patients with adverse event | 0% |
| O=C(N[C@@H]1CC[C@@H]2CCN(c3nc4[nH]ncc4c(=O)[nH]3)[C@H]1C2)c1ccc2c(c1)C(=O)NCC2 | rep main protease | enzyme activity, inhibitor | – | 5 µM, run 1 | – | inhibition | 11.7% |
| NC[C@H]1O[C@H](O[C@H]2[C@H](O)[C@@H](O[C@H]3O[C@H](CO)[C@@H](O)[C@H](N)[C@H]3O)[C@H](N)C[C@@H]2N)[C@H](N)C[C@@H]1O | Spike glycoprotein | binding, BLI | – | – | – | koff | 0.0122 s⁻¹ |
| CC[C@H](C)[C@H](NC(=O)[C@H](CC(C)C)NC(=O)[C@H](Cc1c[nH]c2ccccc12)NC(=O)[C@H](CCC(N)=O)NC(=O)[C@@H](NC(=O)[C@H](Cc1ccccc1)NC(=O)[C@H](C)NC(=O)[C@H](CCCCNC(=O)COCCOCCNC(=O)COCCOCCNC(=O)CC[C@H](NC(=O)CCCCCCCCCCCCCCCCCCC(=O)O)C(=O)O)NC(=O)[C@H](CCC(N)=O)NC(=O)[C@H](C)NC(=O)[C@@H](NC(=O)[C@H](CCCCN)NC(=O)[C@H](CC(=O)O)NC(=O)[C@H](CC(C)C)NC(=O)C(C)(C)NC(=O)[C@@H](NC(=O)[C@H](CO)NC(=O)[C@H](Cc1ccc(O)cc1)NC(=O)[C@H](CC(=O)O)NC(=O)[C@H](CO)NC(=O)[C@@H](NC(=O)[C@H](Cc1ccccc1)NC(=O)[C@@H](NC(=O)CNC(=O)[C@H](CCC(=O)O)NC(=O)C(C)(C)NC(=O)[C@@H](N)Cc1ccc(O)cc1)[C@@H](C)O)[C@@H](C)O)[C@@H](C)CC)[C@@H](C)CC)C(C)C)C(=O)N[C@@H](C)C(=O)NCC(=O)NCC(=O)N1CCC[C@H]1C(=O)N[C@@H](CO)C(=O)N[C@@H](CO)C(=O)NCC(=O)N[C@@H](C)C(=O)N1CCC[C@H]1C(=O)N1CCC[C@H]1C(=O)N1CCC[C@H]1C(=O)N[C@@H](CO)C(N)=O | – | measured: treatment-emergent back pain | healthy subjects | 1.5 mg, multiple ascending dose | – | subjects with adverse event | 0% |
| COc1cc2c(cc1O)[C@@H](Cc1ccc(O)c(Oc3ccc(C[C@@H]4c5cc(OC)c(OC)cc5CCN4C)cc3)c1)N(C)CC2 | Spike glycoprotein | binding, biolayer interferometry | – | – | – | kon | 307 M⁻¹ s⁻¹ |
| CC1=CC(=O)[C@@H](O)[C@]2(C)[C@H]3[C@@H](O)[C@H](O)[C@@]4(C)OC[C@@]35[C@@H](C[C@@H]12)OC(=O)[C@H](O)[C@]54O | rep main protease | reporter gene (Gaussia luciferase), inhibitor | – | 20 µM | – | inhibition | -6.12% |
| NC(=O)c1ccc(/C=C/C(=O)N2C[C@H]3CCC[C@@H](C2)N3C(=O)CCn2c(O)ccc2O)cc1 | rep main protease | enzyme activity, inhibitor | – | 5 µM, run 1 | – | inhibition | 17.2% |
| Nc1ncnc2c([C@@H]3N[C@H](CO)[C@@H](O)[C@H]3O)c[nH]c12 | Marburg virus | viral replication | HeLa, Angola | 6.3 µM | – | inhibition | 62.3% |

A few entries again:
| Structure (SMILES) | target or system | assay | test system | conditions | scale | quantity | result |
| --- | --- | --- | --- | --- | --- | --- | --- |
| O=C(c1cccc(CF)c1)N1CCCCC[C@@H](Nc2nc(-c3cccnc3)nc3c2CCC3)C1 | rep main protease | enzyme activity, inhibitor | – | 5 µM, mean of runs | – | inhibition | 10.6% |
